{"data": "Measured values of several laboratories", "note": "Parts stem from different laboratories: compare values within a part only. Changes are numbered by the printed parent chain."}
{"data": "Study 1", "target": "Histone acetyltransferase KAT6A, winged helix 1, GST fusion (KAT6A, Homo sapiens, UniProt Q92794, residues 1-85)", "method": "protein binding microarray", "form": "double-stranded DNA, one strand shown", "medium": "in vitro", "tested at": "not given", "notes": "8-mer, flanks averaged, mean of 2 arrays, mostly near background", "baseline": "not given", "direction": "higher = stronger binding", "Construct (chain)": "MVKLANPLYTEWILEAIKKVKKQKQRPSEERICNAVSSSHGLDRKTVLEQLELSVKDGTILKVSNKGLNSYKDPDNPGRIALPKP"}
{"Oligonucleotide": "AGTTGTCG", "E-score": -0.104}
{"Oligonucleotide": "ATGTGGGG", "E-score": -0.259}
{"Oligonucleotide": "ATAAGTAG", "E-score": 0.0243}
{"Oligonucleotide": "TAGGAGGA", "E-score": -0.144}
{"Oligonucleotide": "AGGCTGTA", "E-score": -0.197}
{"Oligonucleotide": "ATTTGTTC", "E-score": -0.0096}
{"Oligonucleotide": "CATTTGCC", "E-score": 0.0184}
{"Oligonucleotide": "ACTGTAGC", "E-score": -0.0699}
{"Oligonucleotide": "CCAAGCCG", "E-score": 0.212}
{"Oligonucleotide": "CATTATGC", "E-score": -0.0724}
{"Oligonucleotide": "GTATAATA", "E-score": 0.0421}
{"Oligonucleotide": "CACAAGAG", "E-score": -0.196}
{"Oligonucleotide": "GTACTAAC", "E-score": 0.07}
{"Oligonucleotide": "CTCCTTTA", "E-score": -0.0159}
{"Oligonucleotide": "CCTGTCAC", "E-score": -0.0472}
{"Oligonucleotide": "GCCTCATA", "E-score": -0.0938}
{"Oligonucleotide": "AGAGCTTG", "E-score": -0.159}
{"data": "Study 2", "target": "Interferon regulatory factor 5, full length, phosphomimetic (IRF5, Homo sapiens, UniProt Q13568-2, residues 1-514, S451D/S453D/S456D/S462D)", "method": "protein-binding microarray", "form": "double-stranded DNA, one strand shown", "medium": "in vitro", "tested at": "940 nM top", "notes": "60-bp whole probe", "with": "salmon DNA 0.4 mg/ml", "baseline": "random background probes", "direction": "higher = stronger binding", "shared flanks, not repeated": "GCCTAGCAC … GTCTTGATTCGCTTGACGCTGCTG"}
{"Oligonucleotide": "GGATGTGTCTTAAATAGGGCAGTGCTA", "fitted relative affinity [z-score]": -0.372}
{"Oligonucleotide": "GTGAGTCCCGAGAATGGTGTGGTGCTA", "fitted relative affinity [z-score]": -0.328}
{"Oligonucleotide": "GACGGTTTCCTTTCCCTGCCGTGCTAG", "fitted relative affinity [z-score]": 2.04}
{"Oligonucleotide": "TTAGGTATCGACTATCGGTCAGTGCTA", "fitted relative affinity [z-score]": 5.94}
{"Oligonucleotide": "GGCGGACTGGGACTGGGGACGTGCTAG", "fitted relative affinity [z-score]": -0.775}
{"Oligonucleotide": "TTAGATCTCAGTATAGATTAGTGCTAG", "fitted relative affinity [z-score]": 0.281}
{"Oligonucleotide": "TCAGTTTTCAGCTGTTTTACTGTGCTA", "fitted relative affinity [z-score]": 0.467}
{"Oligonucleotide": "TTAGGTCTCGTTCTCCTTTAGTGCTAG", "fitted relative affinity [z-score]": 2.57}
{"Oligonucleotide": "TCATTTCTGGTTCCCATACTGTGCTAG", "fitted relative affinity [z-score]": 1.01}
{"Oligonucleotide": "TTACAACTGGGGTATCGATTAGTGCTA", "fitted relative affinity [z-score]": 3.72}
{"Oligonucleotide": "TTAGAACTGAGTTTCGGTTAGTGCTAG", "fitted relative affinity [z-score]": 8.86}
{"Oligonucleotide": "AGCAAAAATGATTGGTTGAAGTGCTAG", "fitted relative affinity [z-score]": -0.455}
{"Oligonucleotide": "TTAGGTTCCCTTTACCTTTAGTGCTAG", "fitted relative affinity [z-score]": 0.5}
{"Oligonucleotide": "GATGGAAACTTAAACTAGAAAGTGCTA", "fitted relative affinity [z-score]": 0.26}
{"Oligonucleotide": "TCAACAATGATGTTTTGAACTGTGCTA", "fitted relative affinity [z-score]": -0.209}
{"Oligonucleotide": "TTAGGTATCCTTCTCCTTTAGTGCTAG", "fitted relative affinity [z-score]": 0.56}
{"Oligonucleotide": "TAAGATCTCAGTATCGATTAGTGCTAG", "fitted relative affinity [z-score]": 4.92}
{"Oligonucleotide": "GACGGACTGGGACTGGGAACGTGCTAG", "fitted relative affinity [z-score]": -0.59}
{"Oligonucleotide": "TCAATTTTCATTAACTGACTGTGCTAG", "fitted relative affinity [z-score]": 0.675}
{"Oligonucleotide": "TTAGAACTGGGTACTGGATTAGTGCTA", "fitted relative affinity [z-score]": -0.337}
{"Oligonucleotide": "GACGAACTGAGTTTCGAGCCGTGCTAG", "fitted relative affinity [z-score]": 2.61}
{"Oligonucleotide": "GACGATTTCGGGACTCGAGACGTGCTA", "fitted relative affinity [z-score]": 0.291}
{"Oligonucleotide": "AGATGTGTCTTAAATAGGGCAGTGCTA", "fitted relative affinity [z-score]": -0.58}
{"Oligonucleotide": "GACGGTTTCCTTATTCTGACGTGCTAG", "fitted relative affinity [z-score]": 1.92}
{"Oligonucleotide": "GAGGGTATCGGTATCGGGACGTGCTAG", "fitted relative affinity [z-score]": 6.26}
{"data": "Study 3", "target": "CCNA1, cyclin fold, Cln2 fusion (human)", "method": "yeast growth competition, sequencing", "medium": "yeast", "notes": "weak parent motif", "baseline": "not given", "direction": "higher = stronger binding", "starting sequence": "SLBP docking peptide (human); ARYKRKLLINDFG; partner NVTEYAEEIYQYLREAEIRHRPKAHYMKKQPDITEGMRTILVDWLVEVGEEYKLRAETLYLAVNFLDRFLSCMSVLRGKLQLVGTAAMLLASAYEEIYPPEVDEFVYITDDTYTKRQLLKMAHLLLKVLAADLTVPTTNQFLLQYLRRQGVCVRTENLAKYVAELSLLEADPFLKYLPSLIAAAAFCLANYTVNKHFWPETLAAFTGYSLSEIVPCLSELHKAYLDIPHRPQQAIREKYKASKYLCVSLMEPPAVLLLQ"}
{"Substitution": "D11R", "normalised enrichment score": 0.0402}
{"Substitution": "D11W", "normalised enrichment score": -0.0896}
{"Substitution": "K6C", "normalised enrichment score": 0.689}
{"Substitution": "R2Y", "normalised enrichment score": 0.547}
{"Substitution": "I9G", "normalised enrichment score": 0.0552}
{"Substitution": "K6R", "normalised enrichment score": 0.23}
{"Substitution": "L8F", "normalised enrichment score": 0.512}
{"Substitution": "R5P", "normalised enrichment score": 0.177}
{"Substitution": "F12I", "normalised enrichment score": 0.0774}
{"Substitution": "F12V", "normalised enrichment score": 0.256}
{"Substitution": "R2Q", "normalised enrichment score": 0.51}
{"Substitution": "L8E", "normalised enrichment score": 0.5}
{"Substitution": "L7C", "normalised enrichment score": 0.0566}
{"Substitution": "G13D", "normalised enrichment score": 0.197}
{"Substitution": "D11P", "normalised enrichment score": 0.309}
{"Substitution": "D11C", "normalised enrichment score": 0.029}
{"Substitution": "I9R", "normalised enrichment score": 0.364}
{"Substitution": "N10A", "normalised enrichment score": 0.327}
{"data": "Study 4", "target": "RING finger protein unkempt homolog, zinc fingers 1-6, SBP tag (UNK, Homo sapiens, UniProt Q9C0B0, residues 30-357)", "method": "RNA Bind-n-Seq", "form": "RNA", "medium": "in vitro", "tested at": "100 nM", "notes": "RNA with constant flanks, vertebrate orthologous sites, ends assumed", "baseline": "input RNA pool", "direction": "higher = stronger binding", "shared flanks, not repeated": "GGGAGUUCUACAGUCCGACGAUC … CAACAGAGGAUUGAGCAUCA", "sequence of UniProt Q9C0B0 (30-357, looked up)": "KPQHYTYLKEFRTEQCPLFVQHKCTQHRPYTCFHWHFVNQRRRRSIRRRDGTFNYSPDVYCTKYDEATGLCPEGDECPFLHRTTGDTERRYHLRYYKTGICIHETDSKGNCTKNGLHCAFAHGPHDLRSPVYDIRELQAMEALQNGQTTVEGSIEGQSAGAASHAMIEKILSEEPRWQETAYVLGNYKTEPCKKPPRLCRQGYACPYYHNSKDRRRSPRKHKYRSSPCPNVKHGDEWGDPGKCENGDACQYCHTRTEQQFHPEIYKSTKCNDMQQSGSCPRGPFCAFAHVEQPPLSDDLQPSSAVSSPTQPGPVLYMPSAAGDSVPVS"}
{"Oligonucleotide": "GUUGUGAUCCCUUUAACAUCCACAGAAAGCUGUCAAAGAAAAACUUGCGAGCCAUUGACUUGGACGAUGCAGCUUUCCUGAGUGCCAAGUUUGGAAGGCAGUUUGUUCCUGGUUGGAAGC", "bound/input enrichment": "0.275 ratio"}
{"Oligonucleotide": "CGUUCAGUCCCCUGGGCCGGGACGGGUUUUUUUUUAAGUCUGAAAUUUAAACUGUGCUUGUAGGAGACUGUAACCUUUUUGUCUCUCCUUUUUUUUUUUUUUUUUAACAAACACCCUCCA", "bound/input enrichment": "0.944 ratio"}
{"Oligonucleotide": "UUUGCACAUGACAGUGUUGCAUGGAGGAUCUUCUGAGGAAGAAAGAGGAGAGGGGUGCUGUAGCAGUGGUGCCUGGGAGCCUGGCCUCCAGUGUCCCACCCGCCUCACCACCCUACUUGG", "bound/input enrichment": "0.4 ratio"}
{"Oligonucleotide": "CCGCCAAUUCCCUCAUUGGUCGGGCUGCGCACAUCGCUGUUCUUGAUUCAGAGAUCUUCCUGGAGAAGUUCUUCCUCGUUGCGGGUCUCAAGUUCUUUCAGUAGAAAUGUAUUGGAAUCA", "bound/input enrichment": "0.261 ratio"}
{"Oligonucleotide": "AAGCCCCGCUUUUAGAUGUGACAUCUAGGCUUUCAUUCCAGUUUGUUUUGUCUUCUUGUUUAGAUAGCAACCUUUUAAAUUCUUGCAUUUUAGUAAGAAAGCUACCUUUUUAUGGAUGUU", "bound/input enrichment": "0.619 ratio"}
{"Oligonucleotide": "GAGCCCGGCUCACACAGACUUCACAACACUGAUGAAAGUAGCAAUUUCUAUAGUCACAGUAAGGUAGCAUUAGGGUAAUAUCACCGUGAGUUUACUCAUGUGCAGGUCUUGAAAUGUACA", "bound/input enrichment": "0.592 ratio"}
{"Oligonucleotide": "GUGACUUUGGACGUCCGCUCAGCCGGGUUGCAGAAGCCGCUUGGUGUGUGUCCCGUGCUCGUUCUCCUGUCUCUGGAGGUAGGCCUCUGCCGCAAACAUGCUCCGUCAGAUCAUCGGGCA", "bound/input enrichment": "0.277 ratio"}
{"Oligonucleotide": "UGUAUUCGUGUCAUACCAGCAUAUUAACUUCGUCUGUGCACAGCUUCCGGUGUUACCGUCUAGUUAGAUUUUUAUUUAAAAUAUGAAAAACUGCUUUUCCCAAGAUGUUUUUUAAAGACA", "bound/input enrichment": "0.978 ratio"}
{"Oligonucleotide": "CAGUAGAAUUACACUAAUGCUGAAGUUAAAAGGAUAUCCAAGGUGAUGAUAAAGUGUGUGUUGGUAGUUACUAAAAGAACCUUAGCUGUUAUUGCCUUGUAUUUCUAUCCCUUGUUUCAG", "bound/input enrichment": "0.393 ratio"}
{"Oligonucleotide": "CUGCAGAUUCUCUCAUAGGGAGAGCUGCACACAUUGCUGUUCUUGAUUCAGAAAUAUUUUUAGAAAAAUUCUUUCUUGUUGCUGCCCUGAAAUAUUUUCAGUAGAGAAUAGCAUUCUAAG", "bound/input enrichment": "0.268 ratio"}
{"Oligonucleotide": "CUCUAUGGGCCUCGCAGAGUUGAAAUAAUGGAAGAGGAAAGUGAAUAGUAGUCUUCAUUUUAGUAUUUAUGCUUAGGUGUGAAAAUAAAUGUUAUUUGUUGAUCAUUUCUAUAAUCCAGA", "bound/input enrichment": "0.715 ratio"}
